Measurements of several laboratories.
Numbered parts are unrelated; each lists some results of a single study. “And” joins repeats or separate records; there may be more than shown.
Sequence of UniProt Q99755 (whole entry, looked up): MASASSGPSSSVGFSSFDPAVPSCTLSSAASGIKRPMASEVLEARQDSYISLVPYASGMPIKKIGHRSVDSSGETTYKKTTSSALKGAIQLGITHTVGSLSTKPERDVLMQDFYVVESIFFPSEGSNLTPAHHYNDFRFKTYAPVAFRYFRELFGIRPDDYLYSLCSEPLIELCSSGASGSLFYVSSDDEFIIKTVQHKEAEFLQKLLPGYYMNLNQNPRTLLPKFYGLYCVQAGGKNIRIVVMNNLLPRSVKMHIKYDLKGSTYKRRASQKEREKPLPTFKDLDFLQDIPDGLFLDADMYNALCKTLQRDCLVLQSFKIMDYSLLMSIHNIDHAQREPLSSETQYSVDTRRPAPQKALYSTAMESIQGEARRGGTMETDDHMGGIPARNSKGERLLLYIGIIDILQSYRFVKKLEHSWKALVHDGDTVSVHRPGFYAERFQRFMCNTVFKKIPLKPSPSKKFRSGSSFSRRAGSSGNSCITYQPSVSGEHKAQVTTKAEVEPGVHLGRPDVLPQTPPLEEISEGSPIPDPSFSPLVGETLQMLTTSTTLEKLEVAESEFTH
Sequence of UniProt O15146 (whole entry, looked up): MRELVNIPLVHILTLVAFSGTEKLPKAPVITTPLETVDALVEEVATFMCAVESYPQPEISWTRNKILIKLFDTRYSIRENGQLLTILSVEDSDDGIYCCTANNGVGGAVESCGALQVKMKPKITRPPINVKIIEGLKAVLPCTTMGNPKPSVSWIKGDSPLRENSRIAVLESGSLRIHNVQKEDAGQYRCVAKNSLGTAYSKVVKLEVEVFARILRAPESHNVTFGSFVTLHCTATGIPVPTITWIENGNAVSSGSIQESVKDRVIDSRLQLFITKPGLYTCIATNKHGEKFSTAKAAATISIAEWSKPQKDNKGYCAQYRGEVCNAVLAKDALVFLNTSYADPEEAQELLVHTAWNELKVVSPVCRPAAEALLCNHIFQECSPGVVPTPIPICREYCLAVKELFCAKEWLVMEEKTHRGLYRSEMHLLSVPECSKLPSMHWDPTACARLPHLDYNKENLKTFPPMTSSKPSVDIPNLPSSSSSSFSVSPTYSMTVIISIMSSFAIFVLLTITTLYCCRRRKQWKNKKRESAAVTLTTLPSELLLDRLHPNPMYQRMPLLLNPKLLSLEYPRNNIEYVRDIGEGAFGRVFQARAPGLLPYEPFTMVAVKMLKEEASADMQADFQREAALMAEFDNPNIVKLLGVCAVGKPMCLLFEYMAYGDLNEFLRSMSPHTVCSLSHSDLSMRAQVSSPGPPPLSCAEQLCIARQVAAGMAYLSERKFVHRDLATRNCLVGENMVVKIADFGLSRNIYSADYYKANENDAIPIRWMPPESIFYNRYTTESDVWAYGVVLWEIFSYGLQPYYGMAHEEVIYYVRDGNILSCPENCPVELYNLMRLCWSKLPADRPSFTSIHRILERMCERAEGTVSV
Sequence of UniProt Q8N568 (whole entry, looked up): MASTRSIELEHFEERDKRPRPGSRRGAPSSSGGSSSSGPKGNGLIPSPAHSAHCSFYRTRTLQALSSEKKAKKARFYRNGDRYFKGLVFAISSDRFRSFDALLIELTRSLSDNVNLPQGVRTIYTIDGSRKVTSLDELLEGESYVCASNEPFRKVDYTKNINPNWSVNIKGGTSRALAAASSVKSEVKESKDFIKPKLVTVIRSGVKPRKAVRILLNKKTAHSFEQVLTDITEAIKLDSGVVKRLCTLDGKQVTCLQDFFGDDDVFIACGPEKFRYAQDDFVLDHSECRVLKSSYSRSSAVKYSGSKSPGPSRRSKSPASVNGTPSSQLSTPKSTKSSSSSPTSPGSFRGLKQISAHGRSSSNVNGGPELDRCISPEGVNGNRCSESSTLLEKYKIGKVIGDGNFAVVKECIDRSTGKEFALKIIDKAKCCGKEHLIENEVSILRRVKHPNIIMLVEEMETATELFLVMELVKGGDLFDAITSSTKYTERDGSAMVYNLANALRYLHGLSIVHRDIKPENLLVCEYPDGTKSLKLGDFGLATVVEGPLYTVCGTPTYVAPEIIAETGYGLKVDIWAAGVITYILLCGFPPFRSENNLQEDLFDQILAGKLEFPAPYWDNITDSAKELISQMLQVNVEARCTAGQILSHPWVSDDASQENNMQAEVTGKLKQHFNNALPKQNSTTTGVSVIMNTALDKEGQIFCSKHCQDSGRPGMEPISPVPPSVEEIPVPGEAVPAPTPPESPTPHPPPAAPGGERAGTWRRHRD
Sequence of UniProt P00519 (whole entry, looked up): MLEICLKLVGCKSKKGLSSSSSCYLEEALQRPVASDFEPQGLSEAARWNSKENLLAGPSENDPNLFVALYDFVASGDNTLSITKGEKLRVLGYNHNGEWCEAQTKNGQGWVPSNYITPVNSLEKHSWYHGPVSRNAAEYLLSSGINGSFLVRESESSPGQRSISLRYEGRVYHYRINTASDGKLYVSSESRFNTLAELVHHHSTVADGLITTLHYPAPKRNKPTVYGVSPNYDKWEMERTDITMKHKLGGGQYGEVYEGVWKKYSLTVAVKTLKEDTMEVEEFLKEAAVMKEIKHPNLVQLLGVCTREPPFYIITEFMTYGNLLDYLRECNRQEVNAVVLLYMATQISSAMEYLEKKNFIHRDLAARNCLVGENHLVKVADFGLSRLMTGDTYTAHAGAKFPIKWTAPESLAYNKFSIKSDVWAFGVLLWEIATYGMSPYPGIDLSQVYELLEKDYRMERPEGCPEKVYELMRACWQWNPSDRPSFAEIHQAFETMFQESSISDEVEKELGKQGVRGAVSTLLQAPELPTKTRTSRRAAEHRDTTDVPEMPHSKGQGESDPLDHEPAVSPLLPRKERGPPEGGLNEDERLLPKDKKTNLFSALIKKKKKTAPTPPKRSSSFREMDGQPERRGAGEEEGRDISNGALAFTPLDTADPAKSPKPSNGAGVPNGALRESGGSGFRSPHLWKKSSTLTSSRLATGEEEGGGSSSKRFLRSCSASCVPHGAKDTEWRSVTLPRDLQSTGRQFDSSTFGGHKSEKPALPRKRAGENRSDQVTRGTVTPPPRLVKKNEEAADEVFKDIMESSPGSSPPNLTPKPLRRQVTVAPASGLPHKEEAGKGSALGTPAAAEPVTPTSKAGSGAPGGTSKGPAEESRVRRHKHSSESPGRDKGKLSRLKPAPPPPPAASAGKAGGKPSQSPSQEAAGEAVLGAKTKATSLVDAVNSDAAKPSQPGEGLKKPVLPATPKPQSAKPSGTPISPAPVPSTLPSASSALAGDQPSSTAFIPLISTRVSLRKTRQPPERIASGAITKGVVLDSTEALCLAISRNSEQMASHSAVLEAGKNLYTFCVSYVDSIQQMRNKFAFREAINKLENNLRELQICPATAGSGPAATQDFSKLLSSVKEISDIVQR
Sequence of UniProt O15264 (whole entry, looked up): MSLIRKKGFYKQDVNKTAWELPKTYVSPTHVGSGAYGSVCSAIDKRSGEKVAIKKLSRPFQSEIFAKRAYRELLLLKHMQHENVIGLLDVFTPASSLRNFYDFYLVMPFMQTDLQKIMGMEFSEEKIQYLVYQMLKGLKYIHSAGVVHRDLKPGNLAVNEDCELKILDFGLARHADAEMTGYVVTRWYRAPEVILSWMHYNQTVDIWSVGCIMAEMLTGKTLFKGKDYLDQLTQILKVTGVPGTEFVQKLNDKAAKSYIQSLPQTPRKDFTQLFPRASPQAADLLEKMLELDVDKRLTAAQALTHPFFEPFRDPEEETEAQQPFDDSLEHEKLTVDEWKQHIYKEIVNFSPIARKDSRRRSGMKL
Sequence of UniProt P07333 (whole entry, looked up): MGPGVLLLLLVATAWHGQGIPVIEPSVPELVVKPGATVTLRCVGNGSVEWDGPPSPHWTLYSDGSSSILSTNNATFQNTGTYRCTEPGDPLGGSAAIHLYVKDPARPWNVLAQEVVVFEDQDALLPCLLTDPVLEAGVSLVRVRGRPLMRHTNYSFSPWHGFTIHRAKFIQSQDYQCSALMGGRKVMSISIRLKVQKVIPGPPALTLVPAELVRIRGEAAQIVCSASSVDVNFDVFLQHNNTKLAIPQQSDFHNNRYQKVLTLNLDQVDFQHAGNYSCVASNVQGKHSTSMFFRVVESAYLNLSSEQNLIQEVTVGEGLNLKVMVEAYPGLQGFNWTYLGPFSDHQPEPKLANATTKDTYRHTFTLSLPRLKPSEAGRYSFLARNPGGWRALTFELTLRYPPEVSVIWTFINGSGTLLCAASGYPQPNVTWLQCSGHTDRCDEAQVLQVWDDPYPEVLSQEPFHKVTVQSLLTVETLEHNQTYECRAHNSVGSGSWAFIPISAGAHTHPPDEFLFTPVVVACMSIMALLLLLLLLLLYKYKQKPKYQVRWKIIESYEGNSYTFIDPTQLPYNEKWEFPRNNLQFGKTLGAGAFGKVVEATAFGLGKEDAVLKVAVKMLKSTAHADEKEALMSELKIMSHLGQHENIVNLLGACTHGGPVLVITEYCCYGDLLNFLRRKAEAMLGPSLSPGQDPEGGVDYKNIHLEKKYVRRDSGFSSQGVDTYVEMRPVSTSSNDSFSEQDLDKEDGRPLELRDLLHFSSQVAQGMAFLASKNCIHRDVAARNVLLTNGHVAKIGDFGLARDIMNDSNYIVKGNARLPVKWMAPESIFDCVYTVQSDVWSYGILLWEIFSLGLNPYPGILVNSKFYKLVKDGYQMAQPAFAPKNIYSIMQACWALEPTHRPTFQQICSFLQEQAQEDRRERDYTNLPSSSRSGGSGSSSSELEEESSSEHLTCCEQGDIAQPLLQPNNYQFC

Series 1
SMILES: CNCc1ccccc1-c1csc([C@@H](C)Nc2nc(C)nc3cc(OC)c(OC)cc23)c1
Observed: cell-free assay
Method: competition with immobilised ligand
Concentration: 1 µM
target	remaining binding
Tyrosine-protein kinase ABL1, non-phosphorylated (ABL1, Homo sapiens, UniProt P00519)	80%
Serine/threonine-protein kinase DCLK2 (DCLK2, Homo sapiens, UniProt Q8N568)	99%
Mitogen-activated protein kinase 13 (MAPK13, Homo sapiens, UniProt O15264)	100%
Macrophage colony-stimulating factor 1 receptor (CSF1R, Homo sapiens, UniProt P07333)	91%
Phosphatidylinositol 4-phosphate 5-kinase type-1 alpha (PIP5K1A, Homo sapiens, UniProt Q99755)	75%
Muscle, skeletal receptor tyrosine-protein kinase (MUSK, Homo sapiens, UniProt O15146)	93%
Serine/threonine-protein kinase Nek2 (NEK2, Homo sapiens, UniProt P51955)	92%

Series 2
Compound: CC(C)n1cnc(-c2ccc(F)cc2)c1-c1ncc(C(=O)Nc2ccc(N3CCN(C)CC3)cc2)[nH]1
Method: Phase 2a trial
Species: idiopathic pulmonary fibrosis patients
test	setting	patients with adverse events [%]
item: muscular weakness	30 mg once daily, grade 2 maximum intensity	0
item: blood alkaline phosphatase increased	60 mg once daily, grade 4 maximum intensity	0
item: respiratory tract infection	60 mg once daily, grade 3 maximum intensity	0
item: blood bilirubin increased	30 mg once daily, grade 4 maximum intensity	0
item: urinary tract infection	30 mg once daily, grade 3 maximum intensity	0
item: weight increased	dose not given, grade 2 maximum intensity, all arms	0

Series 3
Target: Serine/threonine-protein kinase Nek2 (NEK2, Homo sapiens, UniProt P51955)
Observed: enzyme activity
Action: inhibitor
Concentration: 0.5 µM
Baseline: control
Construct (P51955 1-445): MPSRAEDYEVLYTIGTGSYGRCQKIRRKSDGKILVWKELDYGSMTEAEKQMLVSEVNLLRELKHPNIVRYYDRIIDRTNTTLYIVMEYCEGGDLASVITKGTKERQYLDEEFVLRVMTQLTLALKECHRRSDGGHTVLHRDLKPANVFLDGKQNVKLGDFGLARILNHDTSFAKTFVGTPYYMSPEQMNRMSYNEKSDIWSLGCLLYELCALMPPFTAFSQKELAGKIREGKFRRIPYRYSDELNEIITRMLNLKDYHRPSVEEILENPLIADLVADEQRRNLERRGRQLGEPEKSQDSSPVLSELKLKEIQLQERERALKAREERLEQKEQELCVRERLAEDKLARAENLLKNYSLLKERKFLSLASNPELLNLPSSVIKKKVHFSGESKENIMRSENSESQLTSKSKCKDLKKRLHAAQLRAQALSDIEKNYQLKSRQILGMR
Structure (SMILES)	remaining activity
Cn1sc(=O)n(Cc2ccccc2)c1=O	99.7%
COc1cc2ncnc(Nc3ccc(Oc4ccccc4)cc3)c2cc1OC	111%
Nc1[nH]nc2nc3ccccc3nc12	99.7%
O=C1NC(=O)C(c2cn(CCCn3ccnc3)c3ccccc23)=C1Nc1ccccc1	106%
CC(C)[C@H](CO)Nc1nc(Nc2cc(N)cc(Cl)c2)c2ncn(C(C)C)c2n1	94.4%
Cc1cccc(-c2[nH]c(C(C)(C)C)nc2-c2ccc3c(c2)OCO3)n1	107%
Nc1ncnc2n[nH]c(Nc3ccc(F)cc3)c12	89.3%
COc1ccc(CNC(=O)Nc2ncc([N+](=O)[O-])s2)cc1	99.1%
O=C(CCCc1ccc(-c2ccccc2F)cc1)Nc1ccc(O)cc1	90.6%
CO[C@H]1C[C@@H]2CC[C@@H](C)[C@@](O)(O2)C(=O)C(=O)N2CCCC[C@H]2C(=O)O[C@H]([C@H](C)C[C@@H]2CC[C@@H](O)[C@H](OC)C2)CC(=O)[C@H](C)/C=C(\C)[C@@H](O)[C@@H](OC)C(=O)[C@H](C)C[C@H](C)/C=C/C=C/C=C/1C	107%
OCC(O)CCON=C1C(c2c(O)[nH]c3ccccc23)=Nc2ccccc21 (centres unmarked)	114%
N#CC(C#N)=C(N)/C(C#N)=C/c1ccc(O)cc1	102%
COc1cc2nccc(Oc3ccc(NC(=S)NC(=O)c4ccccc4C)cc3)c2cc1OC	89%

Series 4
SMILES: COc1ccc(-c2c(Nc3ccccn3)[nH]c3c(C4=CCCCC4)c(-c4ccccc4)nn3c2=O)cc1
Medium: plasma
test	test system	setting	plasma concentration
item: S-adenosylmethionine	human	oral, 200 mg twice daily, cycle 1 day 15	13 ng/mL and 6.66 ng/mL and 11.8 ng/mL
LC-MS/MS, item: methionine	human cancer patients	QD, dose not given, 0 h, geometric mean, cycle 1 day 50	64800 ng/mL
LC-MS/MS, item: methionine	human cancer patients	QD, dose not given, 6 h, median, cycle 1 day 50	88100 ng/mL
LC-MS/MS, item: methionine	human cancer patients	200 mg BID, 8 h, geometric mean, cycle 1 day 200	68400 ng/mL
LC-MS/MS, item: methionine	human cancer patients	200 mg BID, 4 h, median, cycle 1 day 200	91300 ng/mL
LC-MS/MS, item: S-adenosylmethionine	human cancer patients	50 mg QD, 4 h, median, cycle 1 day 50	18.9 ng/mL

Some of these lines once more (series 3):
Structure (SMILES)	remaining activity
CO[C@H]1C[C@@H]2CC[C@@H](C)[C@@](O)(O2)C(=O)C(=O)N2CCCC[C@H]2C(=O)O[C@H]([C@H](C)C[C@@H]2CC[C@@H](O)[C@H](OC)C2)CC(=O)[C@H](C)/C=C(\C)[C@@H](O)[C@@H](OC)C(=O)[C@H](C)C[C@H](C)/C=C/C=C/C=C/1C	107%
OCC(O)CCON=C1C(c2c(O)[nH]c3ccccc23)=Nc2ccccc21 (centres unmarked)	114%
